Measurements of several laboratories.
Compare with care: the assays were run in different laboratories. Several values in a cell are separate wells, animals, samples, runs or records. ± gives the spread as reported.
USP33 ZnF-UBD domain: Ubiquitin carboxyl-terminal hydrolase 33, ZnF-UBD domain (USP33, Homo sapiens, UniProt Q8TEY7)
UniProt Q8TEY7, sequence (whole entry, looked up): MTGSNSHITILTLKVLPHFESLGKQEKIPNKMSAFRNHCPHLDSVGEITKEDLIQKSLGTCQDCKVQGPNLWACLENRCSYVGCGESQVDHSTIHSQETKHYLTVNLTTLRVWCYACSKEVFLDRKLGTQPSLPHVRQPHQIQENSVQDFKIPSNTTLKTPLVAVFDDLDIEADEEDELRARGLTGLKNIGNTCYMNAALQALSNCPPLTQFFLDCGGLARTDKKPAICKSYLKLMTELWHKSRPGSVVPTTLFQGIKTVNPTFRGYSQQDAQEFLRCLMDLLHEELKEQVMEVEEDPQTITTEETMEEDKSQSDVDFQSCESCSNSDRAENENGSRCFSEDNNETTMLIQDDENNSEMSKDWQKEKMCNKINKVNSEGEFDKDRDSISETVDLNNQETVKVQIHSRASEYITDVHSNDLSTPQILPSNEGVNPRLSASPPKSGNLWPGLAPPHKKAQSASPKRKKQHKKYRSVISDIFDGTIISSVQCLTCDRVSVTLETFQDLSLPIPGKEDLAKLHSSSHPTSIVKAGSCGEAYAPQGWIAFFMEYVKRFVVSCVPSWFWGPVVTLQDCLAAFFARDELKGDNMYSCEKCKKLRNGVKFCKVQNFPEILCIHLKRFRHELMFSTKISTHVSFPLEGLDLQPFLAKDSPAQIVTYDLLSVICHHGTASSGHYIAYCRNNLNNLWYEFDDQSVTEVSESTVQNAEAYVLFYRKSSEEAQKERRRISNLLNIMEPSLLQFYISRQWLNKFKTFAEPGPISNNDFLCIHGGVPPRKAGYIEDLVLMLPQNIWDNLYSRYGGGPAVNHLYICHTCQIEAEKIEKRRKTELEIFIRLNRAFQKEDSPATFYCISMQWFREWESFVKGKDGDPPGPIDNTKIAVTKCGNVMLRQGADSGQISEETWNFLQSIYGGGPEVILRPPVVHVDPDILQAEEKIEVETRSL
UniProt Q16774, sequence (whole entry, unmodified, looked up): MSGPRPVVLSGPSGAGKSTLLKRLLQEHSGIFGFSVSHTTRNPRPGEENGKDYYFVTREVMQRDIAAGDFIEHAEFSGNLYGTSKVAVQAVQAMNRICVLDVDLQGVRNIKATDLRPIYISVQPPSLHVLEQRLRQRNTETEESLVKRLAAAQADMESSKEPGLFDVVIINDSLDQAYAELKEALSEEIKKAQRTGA
UniProt P48730, sequence (whole entry, looked up): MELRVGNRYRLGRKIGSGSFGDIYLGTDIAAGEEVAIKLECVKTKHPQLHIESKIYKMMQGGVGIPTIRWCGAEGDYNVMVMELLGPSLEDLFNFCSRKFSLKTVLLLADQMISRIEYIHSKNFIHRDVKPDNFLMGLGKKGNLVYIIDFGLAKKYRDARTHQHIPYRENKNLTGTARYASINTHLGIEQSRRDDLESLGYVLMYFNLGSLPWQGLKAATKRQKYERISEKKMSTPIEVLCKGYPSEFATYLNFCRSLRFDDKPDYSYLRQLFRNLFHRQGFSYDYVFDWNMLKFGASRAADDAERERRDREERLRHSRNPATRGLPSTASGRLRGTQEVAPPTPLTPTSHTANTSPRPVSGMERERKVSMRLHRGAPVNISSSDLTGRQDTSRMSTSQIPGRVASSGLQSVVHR
UniProt P22748, sequence (whole entry, looked up): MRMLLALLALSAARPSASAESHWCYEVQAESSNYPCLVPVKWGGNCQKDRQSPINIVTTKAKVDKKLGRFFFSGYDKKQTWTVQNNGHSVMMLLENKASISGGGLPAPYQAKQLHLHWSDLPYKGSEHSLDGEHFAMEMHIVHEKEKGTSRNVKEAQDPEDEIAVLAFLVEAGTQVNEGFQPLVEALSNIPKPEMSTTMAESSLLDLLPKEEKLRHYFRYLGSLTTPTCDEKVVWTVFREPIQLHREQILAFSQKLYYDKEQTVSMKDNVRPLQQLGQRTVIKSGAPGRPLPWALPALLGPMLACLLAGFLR
UniProt P31641, sequence (whole entry, unmodified, looked up): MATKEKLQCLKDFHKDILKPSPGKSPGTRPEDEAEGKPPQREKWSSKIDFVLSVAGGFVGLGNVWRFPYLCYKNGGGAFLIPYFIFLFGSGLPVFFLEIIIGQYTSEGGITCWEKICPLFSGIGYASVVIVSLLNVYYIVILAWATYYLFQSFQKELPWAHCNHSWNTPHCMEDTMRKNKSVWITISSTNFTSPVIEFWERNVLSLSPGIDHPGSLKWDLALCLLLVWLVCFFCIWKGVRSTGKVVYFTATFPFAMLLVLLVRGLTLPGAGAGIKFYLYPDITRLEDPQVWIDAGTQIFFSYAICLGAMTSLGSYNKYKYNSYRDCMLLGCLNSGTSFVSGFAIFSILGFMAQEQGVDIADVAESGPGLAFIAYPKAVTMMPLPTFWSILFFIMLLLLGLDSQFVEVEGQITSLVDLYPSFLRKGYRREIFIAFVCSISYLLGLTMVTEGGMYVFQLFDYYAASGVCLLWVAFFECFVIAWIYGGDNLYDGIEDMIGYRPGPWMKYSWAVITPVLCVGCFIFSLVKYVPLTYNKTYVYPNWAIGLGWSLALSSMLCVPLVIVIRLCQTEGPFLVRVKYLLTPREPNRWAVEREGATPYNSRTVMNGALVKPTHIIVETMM
UniProt Q5MQD0, sequence (whole entry, looked up): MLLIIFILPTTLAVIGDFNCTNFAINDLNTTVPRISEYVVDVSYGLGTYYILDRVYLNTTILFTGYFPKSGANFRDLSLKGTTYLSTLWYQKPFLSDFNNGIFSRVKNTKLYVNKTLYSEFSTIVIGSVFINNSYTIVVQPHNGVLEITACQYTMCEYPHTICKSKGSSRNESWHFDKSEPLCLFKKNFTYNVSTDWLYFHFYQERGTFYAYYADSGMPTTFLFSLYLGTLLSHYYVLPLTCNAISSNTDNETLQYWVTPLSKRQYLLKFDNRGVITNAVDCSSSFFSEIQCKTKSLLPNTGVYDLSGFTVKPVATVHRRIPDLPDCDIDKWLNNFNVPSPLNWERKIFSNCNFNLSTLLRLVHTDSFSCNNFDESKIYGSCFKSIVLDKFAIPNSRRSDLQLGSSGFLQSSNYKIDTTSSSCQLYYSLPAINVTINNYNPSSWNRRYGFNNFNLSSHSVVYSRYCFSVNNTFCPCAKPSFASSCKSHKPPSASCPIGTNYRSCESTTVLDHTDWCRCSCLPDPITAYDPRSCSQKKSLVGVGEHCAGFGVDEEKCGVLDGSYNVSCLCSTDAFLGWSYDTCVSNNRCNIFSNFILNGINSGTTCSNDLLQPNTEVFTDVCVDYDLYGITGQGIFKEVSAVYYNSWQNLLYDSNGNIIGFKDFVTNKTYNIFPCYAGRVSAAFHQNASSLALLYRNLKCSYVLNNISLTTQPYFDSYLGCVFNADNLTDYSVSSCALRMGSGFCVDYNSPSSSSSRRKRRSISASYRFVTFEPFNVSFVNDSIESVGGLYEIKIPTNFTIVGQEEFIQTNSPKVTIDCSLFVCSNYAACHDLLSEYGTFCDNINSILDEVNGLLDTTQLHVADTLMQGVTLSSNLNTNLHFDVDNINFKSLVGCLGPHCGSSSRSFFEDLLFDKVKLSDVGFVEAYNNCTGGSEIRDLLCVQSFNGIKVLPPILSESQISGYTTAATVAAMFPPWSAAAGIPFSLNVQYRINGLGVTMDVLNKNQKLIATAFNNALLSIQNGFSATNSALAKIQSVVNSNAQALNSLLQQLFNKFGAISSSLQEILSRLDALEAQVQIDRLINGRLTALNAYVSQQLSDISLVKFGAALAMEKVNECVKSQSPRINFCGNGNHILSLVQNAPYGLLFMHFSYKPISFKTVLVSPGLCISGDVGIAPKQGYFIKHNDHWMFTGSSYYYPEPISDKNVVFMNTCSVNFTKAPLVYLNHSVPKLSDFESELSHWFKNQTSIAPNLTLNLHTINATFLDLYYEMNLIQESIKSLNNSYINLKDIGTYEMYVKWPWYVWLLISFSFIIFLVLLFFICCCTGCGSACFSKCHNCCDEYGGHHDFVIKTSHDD
UniProt B9K712, sequence (whole entry, looked up): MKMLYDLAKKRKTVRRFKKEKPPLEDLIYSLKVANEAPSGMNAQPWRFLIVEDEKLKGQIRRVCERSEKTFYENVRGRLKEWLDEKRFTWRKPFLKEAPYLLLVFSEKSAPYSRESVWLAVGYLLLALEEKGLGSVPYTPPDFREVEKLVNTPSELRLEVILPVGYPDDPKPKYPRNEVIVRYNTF
UniProt P02749, sequence (whole entry, unmodified, looked up): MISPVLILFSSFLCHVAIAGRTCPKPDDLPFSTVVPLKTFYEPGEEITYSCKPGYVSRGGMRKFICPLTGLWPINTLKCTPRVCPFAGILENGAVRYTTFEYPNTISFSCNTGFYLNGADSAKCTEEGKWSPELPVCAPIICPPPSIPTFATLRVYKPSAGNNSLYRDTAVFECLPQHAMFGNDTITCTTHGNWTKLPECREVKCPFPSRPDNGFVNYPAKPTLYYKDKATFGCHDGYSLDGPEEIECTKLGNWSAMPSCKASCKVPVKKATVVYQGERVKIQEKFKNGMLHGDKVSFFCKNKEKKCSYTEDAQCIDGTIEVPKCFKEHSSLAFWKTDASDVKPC
UniProt P39146, sequence (whole entry, unmodified, looked up): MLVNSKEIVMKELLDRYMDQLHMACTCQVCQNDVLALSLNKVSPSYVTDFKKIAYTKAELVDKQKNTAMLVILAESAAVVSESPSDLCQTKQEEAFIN
UniProt P08185, sequence (whole entry, looked up): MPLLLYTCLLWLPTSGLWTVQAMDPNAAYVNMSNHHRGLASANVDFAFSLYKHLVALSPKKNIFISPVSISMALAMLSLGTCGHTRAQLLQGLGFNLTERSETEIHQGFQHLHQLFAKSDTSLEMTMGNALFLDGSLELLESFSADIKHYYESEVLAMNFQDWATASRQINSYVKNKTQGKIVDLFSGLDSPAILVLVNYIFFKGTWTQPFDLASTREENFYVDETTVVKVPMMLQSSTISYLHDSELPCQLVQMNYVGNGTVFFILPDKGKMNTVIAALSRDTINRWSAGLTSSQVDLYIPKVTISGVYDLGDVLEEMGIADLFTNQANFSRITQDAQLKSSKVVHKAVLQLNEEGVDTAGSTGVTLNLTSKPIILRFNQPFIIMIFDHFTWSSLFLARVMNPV

SMILES	target	assay	test system	conditions	Kd
Nc1ncnc2c1ncn2[C@@H]1O[C@H](CO[P@](=O)(O)O[P@](=O)(O)O[P@@](=O)(O)S)[C@@H](O)[C@H]1O	uncharacterized protein (Thermomonospora curvata, UniProt D1ABX1)	isothermal titration calorimetry		pH 7.5, 25 °C	39.4 ± 8.8 µM
O=C(O)c1cc2ccc(C#CC3(O)CCCCC3)cc2n1-c1cccc(Cl)c1	Microphthalmia-associated transcription factor, residues 1-296 (Homo sapiens, UniProt O75030)	binding, isothermal titration calorimetry			0.46 ± 0.17 µM
NCC(=O)O	Uncharacterized protein (Pelagibacter ubique, UniProt Q4FM26)	isothermal titration calorimetry	Candidatus Pelagibacter ubique		0.0299 µM and 0.0222 µM
C[C@]12CCC(=O)C=C1CC[C@@H]1[C@@H]2[C@@H](O)C[C@@]2(C)[C@H]1CC[C@]2(O)C(=O)CO	SERPINA6 (Homo sapiens, UniProt P08185)	binding, ultrafiltration, LC-MS/MS	diabetic patients, plasma	37 °C, 10% CO2, typical BMI and HbA1c	0.0151 µM
O=C(O)CCn1nnc(-c2ccccc2)n1	USP33 ZnF-UBD domain				> 1000 µM
OC[C@H]1O[C@H](O[C@H]2[C@H](O)[C@@H](O)[C@@H](O[C@H]3[C@H](O)[C@@H](O)[C@@H](O[C@H]4[C@H](O)[C@@H](O)[C@@H](O[C@H]5[C@H](O)[C@@H](O)[C@@H](O[C@H]6[C@H](O)[C@@H](O)[C@@H](O[C@H]7[C@H](O)[C@@H](O)C(O)O[C@@H]7CO)O[C@@H]6CO)O[C@@H]5CO)O[C@@H]4CO)O[C@@H]3CO)O[C@@H]2CO)[C@H](O)[C@@H](O)[C@@H]1O (some centres unmarked)	Uncharacterized protein (Staphylococcus aureus, UniProt Q2G1E9)	isothermal titration calorimetry		25 °C, single-site fit	1.17 ± 0.07 µM
O=C(O)CSc1nnc(NC(=O)COc2ccccc2)s1	USP33 ZnF-UBD domain				> 1000 µM
NCc1ccc(S(N)(=O)=O)cc1	CA4 (Homo sapiens, UniProt P22748)	fluorescent thermal shift		pH 7.0, 25 °C	3.3 µM
COc1cc2oc(=O)cc(C)c2cc1CCC(=O)O	USP33 ZnF-UBD domain				> 1000 µM
O=c1nc2[nH][nH]cc-2c(=O)[nH]1	CSNK1D (Homo sapiens, UniProt P48730)	surface plasmon resonance		up to 50 µM	no binding
Nc1nc2c(ncn2[C@@H]2O[C@H](COP(=O)(O)O)[C@@H](O)[C@H]2O)c(=O)[nH]1	GUK1 (Homo sapiens, UniProt Q16774, Y53A)	binding, ITC		25 °C	> 500 µM
Nc1nc2c(ncn2[C@@H]2O[C@H](COP(=O)(O)OP(=O)(O)OP(=O)(O)O)[C@@H](O)[C@H]2O)c(=O)[nH]1	BisD (Pseudomonas knackmussii)	binding, isothermal titration calorimetry			~64 µM
NCCCC(=O)O	SLC6A6 (Homo sapiens, UniProt P31641, F300A)	microscale thermophoresis		F300A mutant	no binding
C[C@H](N)C(=O)N[C@@H](CCCCNC(=O)CCCCC(=O)NCCCC[C@H](NC(=O)[C@H](C)N)C(=O)N1CCC[C@H]1C(=O)N[C@@H](Cc1ccccc1)C(=O)N[C@H](CCCCNC(=O)c1ccc2c(c1)C(=O)OC21c2ccc(O)cc2Oc2cc(O)ccc21)C(N)=O)C(=O)N1CCC[C@H]1C(=O)N[C@@H](Cc1ccccc1)C(N)=O	Baculoviral IAP repeat-containing protein 2, BIR3 domain (BIRC2, Homo sapiens, UniProt Q13490)	binding, fluorescence polarisation		with: tracer 1 nM	0.0007 ± 0.0005 µM
CC(C)C[C@H](NC(=O)[C@H](CC(N)=O)NC(=O)[C@H](Cc1c[nH]c2ccccc12)NC(=O)[C@@H](NC(=O)[C@H](Cc1ccc(O)cc1)NC(=O)[C@H](Cc1ccc(O)cc1)NC(=O)[C@H](CO)NC(=O)[C@H](CCCNC(=N)N)NC(=O)[C@H](Cc1c[nH]cn1)NC(=O)[C@@H](N)Cc1c[nH]c2ccccc12)[C@@H](C)O)C(=O)O	Programmed cell death 1 ligand 1, extracellular domain (CD274, Homo sapiens, UniProt Q9NZQ7)	binding, SPR			0.243 µM
OC[C@H]1O[C@H](O[C@H]2[C@H](O)[C@@H](O)[C@@H](O[C@H]3[C@H](O)[C@@H](O)[C@@H](O[C@H]4[C@H](O)[C@@H](O)[C@@H](O[C@H]5[C@H](O)[C@@H](O)[C@@H](O[C@H]6[C@H](O)[C@@H](O)C(O)O[C@@H]6CO)O[C@@H]5CO)O[C@@H]4CO)O[C@@H]3CO)O[C@@H]2CO)[C@H](O)[C@@H](O)[C@@H]1O (some centres unmarked)	Uncharacterized protein (Staphylococcus aureus, UniProt Q2G1E9)	isothermal titration calorimetry		25 °C, single-site fit	1.4 ± 0.06 µM
CC(=O)NC1C(O)CC(OC(CO)C(O)C2OC(OC3C(O)C(CO)OC(OC4C(CO)OC(Oc5ccc(N)cc5)C(O)C4O)C3O)(C(=O)O)CC(O)C2NC(C)=O)(C(=O)O)OC1C(O)C(O)COC(C)=O (centres unmarked)	Spike glycoprotein, D1 domain (S, Human coronavirus HKU1, UniProt Q5MQD0)	surface plasmon resonance	PBS		5.1 ± 0.3 µM
O=C(O)CCC(=O)Nc1ccccc1	USP33 ZnF-UBD domain				> 1000 µM

SMILES	target	assay	test system	conditions	Kd
Nc1ncnc2c1ncn2[C@@H]1O[C@H](COP(=O)(O)OP(=O)(O)O)[C@@H](O)[C@H]1O	GUK1 (Homo sapiens, UniProt Q16774, S18A)	binding, ITC		25 °C, with: GMP	30 ± 3 µM
NC[C@@H]1O[C@H](O[C@H]2[C@@H](O)[C@H](O[C@@H]3[C@@H](O)[C@H](N)C[C@H](N)[C@H]3O[C@H]3O[C@H](CN)[C@@H](O)[C@H](O)[C@H]3N)O[C@@H]2CO)[C@H](N)[C@@H](O)[C@@H]1O	(CUG)10 RNA	SPR			0.472 µM
Nc1ncnc2c1ncn2[C@@H]1O[C@H](COP(=O)(O)OP(=O)(O)OP(=O)(O)O)[C@@H](O)[C@H]1O	BisD (Pseudomonas knackmussii)	binding, isothermal titration calorimetry			~13 µM
N[C@@H](Cc1ccc(O)c(I)c1)C(=O)O	Iodotyrosine deiodinase, split at 68–92 (IYD, Thermotoga neapolitana, UniProt B9K712)	fluorescence quenching		25 °C, oxidized enzyme	410 ± 20 µM
OC[C@H]1OC(O)[C@H](O)[C@@H](O)[C@@H]1O (some centres unmarked)	Krueppel-like factor 4 (KLF4, Homo sapiens, UniProt O43474)	binding, microscale thermophoresis			> 2000 µM
N[C@@H](CCC(=O)O)C(=O)O	Uncharacterized protein (Pelagibacter ubique, UniProt Q4FM26)	binding, competition isothermal titration calorimetry	Candidatus Pelagibacter ubique	with: phenylalanine 1 mM competitor	0.000344 µM and 0.000719 µM
O=C(O)CCC(=O)c1ccc(S(=O)(=O)N2CCCC2)cc1	USP33 ZnF-UBD domain				> 1000 µM
Nc1ncnc2c1ncn2[C@@H]1O[C@H](COP(=O)(O)OP(=O)(O)O)[C@@H](O)[C@H]1O	CKMT1A (Homo sapiens, UniProt P12532, E265Q)	microscale thermophoresis		pH 8.5, with: creatine + nitrate	2 ± 1 µM
N[C@@H](CO)C(=O)O	Uncharacterized protein (Pelagibacter ubique, UniProt Q4FM26)	isothermal titration calorimetry	Candidatus Pelagibacter ubique	direct titration	0.0064 µM
O=C(O)COc1cnc2ccccc2n1	USP33 ZnF-UBD domain				> 1000 µM
CO[C@H]1O[C@H](COS(=O)(=O)O)[C@@H](O[C@@H]2O[C@@H](C(=O)O)[C@@H](O[C@H]3O[C@H](COS(=O)(=O)O)[C@@H](O[C@@H]4O[C@H](C(=O)O)[C@@H](O[C@H]5O[C@H](COS(=O)(=O)O)[C@@H](O)[C@H](O)[C@H]5NS(=O)(=O)O)[C@H](O)[C@H]4O)[C@H](OS(=O)(=O)O)[C@H]3NS(=O)(=O)O)[C@H](O)[C@H]2OS(=O)(=O)O)[C@H](O)[C@H]1NS(=O)(=O)O	Beta-2-glycoprotein 1, domain V (APOH, Homo sapiens, UniProt P02749, V266L)	isothermal titration calorimetry	25 mM cacodylate buffer	pH 7.2, 298 K, with: 150 mM NaCl	37.7 µM
Nc1ncnc2c1ncn2[C@@H]1O[C@H](COP(=O)(O)OP(=O)(O)OP(=O)(O)O)[C@@H](O)[C@H]1O	CKMT1A (Homo sapiens, UniProt P12532)	microscale thermophoresis		pH 8.5, WT mutant, no substrate	12 ± 2 µM
Nc1nc2c(ncn2[C@@H]2O[C@@H]3CO[P@](=O)(O)O[C@H]4[C@@H](O)[C@H](n5cnc6c(=O)[nH]c(N)nc65)O[C@@H]4CO[P@](=O)(O)O[C@H]3[C@H]2O)c(=O)[nH]1	Competence protein ComFB (comFB, Bacillus subtilis, UniProt P39146, N40A)				5 ± 1.66 µM
O=C(O)CCn1cnc2ccccc21	USP33 ZnF-UBD domain				> 1000 µM
OC[C@@H](O)[C@@H](O[C@H]1O[C@H](CO)[C@@H](O[C@H]2O[C@H](CO)[C@@H](O[C@H]3O[C@H](CO)[C@@H](O)[C@H](O)[C@H]3O)[C@H](O)[C@H]2O)[C@H](O)[C@H]1O)[C@H](O)[C@@H](O)CO	Uncharacterized protein (Staphylococcus aureus, UniProt Q2G1E9)	isothermal titration calorimetry		25 °C, single-site fit	0.84 ± 0.19 µM
O=C(O)CCc1nc2ncccn2n1	USP33 ZnF-UBD domain				> 1000 µM
Cc1cc(Nc2cc3ncccc3c(N[C@@H]3C[C@H]4CC[C@@H](C3)N4CCC#N)n2)n[nH]1	RET (Homo sapiens, UniProt P07949)	binding, KINOMEscan			0.042 µM

A few entries again:
SMILES	target	assay	test system	conditions	Kd
N[C@@H](CO)C(=O)O	Uncharacterized protein (Pelagibacter ubique, UniProt Q4FM26)	isothermal titration calorimetry	Candidatus Pelagibacter ubique	direct titration	0.0064 µM
O=C(O)COc1cnc2ccccc2n1	USP33 ZnF-UBD domain				> 1000 µM
